Measured values from different studies.
Compare with care: the assays were run in different laboratories.

C=CC(=O)N(C)CCOc1c(N)ncnc1-c1cc(F)cc(NC(=O)c2ccc(C3CC3)cc2F)c1C — Cmax (human, whole blood; oral, 100 mg single dose): 141 ng/mL
CN1C(=O)[C@@H](NC(=O)c2nnc(Cc3ccccc3)[nH]2)COc2cccnc21 — Cmax (healthy human, fasted, plasma; oral, 100 mg single dose, geometric mean): 1780 ng/mL
C[C@@H](Nc1cc(F)cc(F)c1)c1cc(C(=O)N(C)C)cc2c(=O)cc(N3CCOCC3)oc12 — Cmax (human; oral, 180 mg twice daily, day 1, 5:2 schedule, single dose, range): 1250 to 1940 ng/mL
COc1cc(N2CCC(N3CCN(C)CC3)CC2)ccc1Nc1ncnc(Nc2ccccc2S(=O)(=O)C(C)C)n1 — Cmax (human, plasma; oral, 200 mg, day 1): 382 ng/mL
C[C@@H]1CCO[C@H]2Cn3cc(C(=O)NCc4ccc(F)cc4F)c(=O)c(O)c3C(=O)N12 — Cmax (human paediatric patients, weight sample C to under sample D kg, plasma; oral, 25 mg film-coated tablet, steady state, geometric mean, population PK post-hoc, N 26): 2650 ng/mL
O=C(COc1ccc(Cl)cc1)NC12CC(c3nnc([C@H]4C[C@@H](OC(F)(F)F)C4)o3)(C1)C2 — Cmax (healthy human volunteers fasted, plasma; oral, 800 mg single dose, geometric mean): 7.16 µM
CCn1cc(C(=O)N2CCOCC2)c(=O)c2cc(NC3Cc4ccccc4C3)cnc21 — Cmax (human, fasted; oral tablet, 300 mg single dose, arithmetic mean): 1730 ng/mL
CCOc1c([C@H](C)n2nc(C)c3c(N)ncnc32)cc(Cl)c(F)c1[C@@H]1CNC(=O)C1 — Cmax (human patients, plasma; oral, 30 mg, day 1, geometric mean): 2.11 µM
CCN1CCN(Cc2ccc(Nc3ncc(F)c(-c4cc(F)c5nc6n(c5c4)[C@H](C)CCC6)n3)nc2)CC1 — Cmax (human, plasma; 500 mg multiple dosing, mean): 476 ng/mL
Cl.[2H]C([2H])([2H])CC(=O)c1cnc(NC(=O)C2CC2)cc1Nc1cccc(-c2ncn(C([2H])([2H])[2H])n2)c1OC — Cmax (human, fed, multiple dose; oral, 30 mg twice daily, tablet, day 1, geometric mean): 182 ng/mL
COc1ncc(-c2nc3c(n2C(C)C)[C@H](c2ccc(Cl)cc2)N(c2cc(Cl)cn(C)c2=O)C3=O)c(OC)n1 — Cmax (LC-MS/MS; human, plasma; oral, 12.5 mg, cycle 1 day 1, high-dose arm): 118 ng/mL
CC(C)[C@H](N)C(=O)NCCCS(=O)(=O)O — Cmax (human, plasma; oral, 171 mg twice daily days 2-7, day 7, fasted, capsule): 4830 ng/mL
CO[C@H]1C[C@@H]2CC[C@@H](C)[C@@](O)(O2)C(=O)C(=O)N2CCCC[C@H]2C(=O)O[C@H]([C@H](C)C[C@@H]2CC[C@@H](OC(=O)NCCOCCOCCOCCOCCOCCOCCOCCOCCC(=O)N3CCc4cc(Cn5nc(-c6ccc7oc(N)nc7c6)c6c(N)ncnc65)ccc4C3)[C@H](OC)C2)C[C@@H](O)[C@H](C)/C=C(\C)[C@@H](O)[C@@H](OC)C(=O)[C@H](C)C[C@H](C)/C=C/C=C/C=C/1C — Cmax (human, plasma; intravenous, 3 mg, cycle 1 day 15, arithmetic mean): 120 ng/mL
